Earlier results as cited in several papers.
Each numbered part shows a few of the values that one paper quotes.

Sample 1
Organism: Cryptosporidium parvum
Technique: high-throughput screen
Tested at: concentration not given
SMILES	activity
CCCc1nc(C(C)(C)O)c(C(=O)OCc2oc(=O)oc2C)n1Cc1ccc(-c2ccccc2-c2nnn[nH]2)cc1	inactive
CC(C(=O)O)c1cccc(C(=O)c2ccccc2)c1 (stereo not shown)	inactive
COc1ccc2[nH]c([S+]([O-])Cc3ncc(C)c(OC)c3C)nc2c1 (stereo not shown)	inactive
CC1=C(/C=C/C(C)=C/C=C/C(C)=C\C(=O)O)C(C)(C)CCC1	inactive
Oc1ccc(C2CNCCc3c2cc(O)c(O)c3Cl)cc1 (stereo not shown)	inactive
CC(C(O)c1ccc(O)cc1)N1CCC(Cc2ccccc2)CC1 (stereo not shown)	inactive
CN[C@@H]1[C@H](O)[C@H](NC)[C@H]2O[C@@]3(O)C(=O)C[C@@H](C)O[C@H]3O[C@@H]2[C@H]1O.Cl.Cl	inactive
CC(C)(C)C(O)/C=C/c1ccc2c(c1)OCO2 (stereo not shown)	inactive
OC[C@H]1O[C@@H](n2cnc3c(NC4CCCC4)nc(Cl)nc32)[C@H](O)[C@@H]1O	inactive
Cc1ccnc2c1NC(=O)c1cccnc1N2C1CC1	inactive
CCCC1O[C@@H]2C[C@H]3[C@@H]4CCC5=CC(=O)C=C[C@]5(C)[C@H]4[C@@H](O)C[C@]3(C)[C@]2(C(=O)CO)O1 (stereo partly shown)	inactive
CC[C@H]1OC(=O)[C@H](C)C(=O)[C@H](C)[C@@H](O[C@@H]2O[C@H](C)C[C@H](N(C)C)[C@H]2O)[C@](C)(OC)C[C@@H](C)C(=O)[C@H](C)[C@H]2N(CCCCn3cnc(-c4cccnc4)c3)C(=O)O[C@]12C	inactive
C[C@@](Cc1ccc(O)c(O)c1)(NN)C(=O)O	inactive
CC(C)(C)NCC(O)c1ccc(O)c(CO)c1.CC(C)(C)NCC(O)c1ccc(O)c(CO)c1.O=S(=O)(O)O (stereo not shown)	inactive
Cc1onc(-c2c(Cl)cccc2Cl)c1C(=O)N[C@@H]1C(=O)N2[C@@H]1SC(C)(C)[C@@H]2C(=O)O	inactive
CCCc1nc(C)c2c(=O)[nH]c(-c3cc(S(=O)(=O)N4CCN(CC)CC4)ccc3OCC)nn12.O=C(O)CC(O)(CC(=O)O)C(=O)O	inactive
CC(C)OC(=O)C(C)(C)Oc1ccc(C(=O)c2ccc(Cl)cc2)cc1	inactive

Single results of other studies
SMILES	tested on	test	system	setting	how to read	quantity	result
CNS(=O)(=O)Nc1nccc(Cc2c(C)c3ccc(Oc4ncccn4)cc3oc2=O)c1F	BRAF V600E	kinase activity, inhibitor				IC50	0.0082 µM
O=C(O)CC1CCN(C(=O)c2ccc(Cl)c(Cn3ccc4cc(C(F)(F)F)cc(Cl)c43)c2Cl)CC1	OATP1B		human	375 mg once daily		plasma coproporphyrin I exposure	no effect
Cc1nc(Nc2ncc(C(=O)Nc3c(C)cccc3Cl)s2)cc(N2CCN(CCO)CC2)n1				pH 6.8		aqueous solubility	< 1 µg/mL
C[C@@H](O)[C@H]1C(=O)N2C(C(=O)O)=C(S[C@@H]3CN[C@H](C(=O)N(C)C)C3)[C@H](C)[C@H]12		perpetrator, measured: valproic acid	human, serum	dose not given	reference: without compound	serum concentration reduction	89%
Cc1cc2nc3c(=O)[nH]c(=O)nc-3n(C[C@H](O)[C@H](O)[C@H](O)CO)c2cc1C			human	oral, up to 60 mg		Tmax	2 h
O=C1Nc2ccc(Cl)cc2[C@@](C#CC2CC2)(C(F)(F)F)O1				Simcyp input parameter		logP	4.01
O=C(O)c1cc(-c2ccc(C3CCNCC3)cc2)c2ccc(-c3ccc(C(F)(F)F)cc3)cc2c1	EGFR	enzyme activity, Eurofins-Panlabs panel		concentration not given		IC50	4.59 µM
CC[C@H]1OC(=O)[C@H](C)[C@@H](O[C@H]2C[C@@](C)(OC)[C@@H](O)[C@H](C)O2)[C@H](C)[C@@H](O[C@@H]2O[C@H](C)C[C@H](N(C)C)[C@H]2O)[C@](C)(O)C[C@@H](C)CN(C)[C@H](C)[C@@H](O)[C@]1(C)O	dopamine transporter					IC50	> 10 µM
O=C(c1ccccc1)c1ccc2n1CCC2C(=O)O (stereo not shown)			plasma	concentration not given		unbound Cmax	0.1 µM
CC(C)NCC(O)COc1ccc(CC(N)=O)cc1 (stereo not shown)	dopamine transporter					IC50	> 10 µM
O=C(O)CCc1nc(-c2ccccc2)c(-c2ccccc2)o1			plasma	concentration not given		Cmax	501 µM
C[C@@H](Oc1cc(-c2cnn(C3CCNCC3)c2)cnc1N)c1c(Cl)ccc(F)c1Cl		measured: constipation	treatment-naive ALK-positive NSCLC patients	dose not given, monotherapy trial		adverse event incidence	43%
C[C@@]1(Cc2ccc(C#N)cc2)C(=O)N(c2cc(Cl)cc(Cl)c2)c2ncc(C(=O)NC3(c4nc(C5CCC5)no4)CC3)n21	ITGAL	cell-based				IC50	> 1 µM
CNC(=O)c1ccc(N2C(=S)N(c3ccc(C#N)c(C(F)(F)F)c3)C(=O)C2(C)C)cc1F		measured: arthralgias	post-docetaxel patients	dose not given, AFFIRM trial		adverse event incidence	21%
CO[C@@H](C)c1c(Nc2ccc([C@H](N(C)C(=O)C3CCS(=O)(=O)CC3)C(F)(F)F)cc2)cnc2cc(Cl)nn12	human MALT1	biochemical		high salt		IC50	0.0024 µM
C=CC(=O)Nc1cc(Nc2nccc(-c3cn(C)c4ccccc34)n2)c(OC)cc1N(C)CCN(C)C	CYP1A2					metabolism contribution	12%
Cc1ncc([N+](=O)[O-])n1CCO			human	with: radiolabelled compound		fraction excreted in faeces	6 to 15%
